Results collected from several papers.
“And” joins repeats or separate records; there may be more than shown. ± marks the error that the study gave.
HTR3A: 5-hydroxytryptamine receptor 3A (HTR3A, Homo sapiens, UniProt P46098)
UniProt P46098, sequence (whole entry, looked up): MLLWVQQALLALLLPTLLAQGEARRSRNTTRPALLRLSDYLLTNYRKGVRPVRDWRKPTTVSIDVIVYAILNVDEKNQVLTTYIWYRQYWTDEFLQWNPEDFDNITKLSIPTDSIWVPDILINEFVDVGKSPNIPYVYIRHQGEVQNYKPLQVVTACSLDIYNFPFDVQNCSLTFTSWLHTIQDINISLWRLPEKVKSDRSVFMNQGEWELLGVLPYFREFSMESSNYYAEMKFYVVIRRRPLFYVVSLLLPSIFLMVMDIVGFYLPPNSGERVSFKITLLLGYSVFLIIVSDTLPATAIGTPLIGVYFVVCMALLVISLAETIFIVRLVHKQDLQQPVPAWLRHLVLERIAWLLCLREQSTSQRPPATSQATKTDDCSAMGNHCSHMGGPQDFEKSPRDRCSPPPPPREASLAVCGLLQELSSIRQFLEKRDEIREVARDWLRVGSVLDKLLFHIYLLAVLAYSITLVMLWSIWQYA
sdiA: Regulatory protein SdiA (sdiA, Escherichia coli, UniProt P07026)
UniProt A5GZW8, sequence (whole entry, looked up): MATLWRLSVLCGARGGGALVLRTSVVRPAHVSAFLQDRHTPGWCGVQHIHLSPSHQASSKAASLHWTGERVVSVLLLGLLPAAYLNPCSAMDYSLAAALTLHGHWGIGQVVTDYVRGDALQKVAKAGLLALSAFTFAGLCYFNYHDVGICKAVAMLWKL
UniProt P27361, sequence (whole entry, looked up): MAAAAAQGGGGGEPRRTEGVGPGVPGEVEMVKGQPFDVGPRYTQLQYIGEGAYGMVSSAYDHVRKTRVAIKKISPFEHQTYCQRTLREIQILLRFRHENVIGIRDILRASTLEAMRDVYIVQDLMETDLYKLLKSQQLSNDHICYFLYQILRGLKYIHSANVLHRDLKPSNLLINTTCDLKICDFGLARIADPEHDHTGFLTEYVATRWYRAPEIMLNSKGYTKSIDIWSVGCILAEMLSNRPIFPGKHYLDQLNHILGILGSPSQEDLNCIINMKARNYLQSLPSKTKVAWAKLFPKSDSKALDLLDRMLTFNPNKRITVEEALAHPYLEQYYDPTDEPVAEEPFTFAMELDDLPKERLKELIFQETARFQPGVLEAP
UniProt D0VWV4, sequence (whole entry, looked up): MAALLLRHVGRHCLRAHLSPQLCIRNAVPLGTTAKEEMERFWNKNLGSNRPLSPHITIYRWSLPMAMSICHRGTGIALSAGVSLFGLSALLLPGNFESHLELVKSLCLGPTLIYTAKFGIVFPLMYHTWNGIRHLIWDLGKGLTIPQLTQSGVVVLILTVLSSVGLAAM
UniProt Q007T0, sequence (whole entry, looked up): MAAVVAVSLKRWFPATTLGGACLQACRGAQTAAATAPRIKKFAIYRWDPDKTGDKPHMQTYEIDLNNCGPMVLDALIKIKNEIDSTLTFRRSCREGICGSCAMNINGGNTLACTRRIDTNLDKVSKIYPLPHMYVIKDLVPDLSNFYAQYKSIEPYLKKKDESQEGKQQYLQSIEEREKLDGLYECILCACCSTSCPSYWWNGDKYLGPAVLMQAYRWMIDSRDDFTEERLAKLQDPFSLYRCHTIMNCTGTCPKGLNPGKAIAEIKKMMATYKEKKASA
UniProt P07026, sequence (whole entry, looked up): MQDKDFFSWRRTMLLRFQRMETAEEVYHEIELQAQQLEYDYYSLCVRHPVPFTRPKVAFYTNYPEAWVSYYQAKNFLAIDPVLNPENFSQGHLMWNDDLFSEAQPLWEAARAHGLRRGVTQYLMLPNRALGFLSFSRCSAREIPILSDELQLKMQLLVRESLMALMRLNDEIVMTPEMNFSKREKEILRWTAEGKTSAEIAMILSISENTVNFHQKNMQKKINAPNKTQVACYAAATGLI
UniProt Q9X6J6, sequence (whole entry, unmodified, looked up): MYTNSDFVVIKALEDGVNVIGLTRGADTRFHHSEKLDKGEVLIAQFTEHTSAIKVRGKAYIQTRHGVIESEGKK
UniProt P35372, sequence (whole entry, looked up): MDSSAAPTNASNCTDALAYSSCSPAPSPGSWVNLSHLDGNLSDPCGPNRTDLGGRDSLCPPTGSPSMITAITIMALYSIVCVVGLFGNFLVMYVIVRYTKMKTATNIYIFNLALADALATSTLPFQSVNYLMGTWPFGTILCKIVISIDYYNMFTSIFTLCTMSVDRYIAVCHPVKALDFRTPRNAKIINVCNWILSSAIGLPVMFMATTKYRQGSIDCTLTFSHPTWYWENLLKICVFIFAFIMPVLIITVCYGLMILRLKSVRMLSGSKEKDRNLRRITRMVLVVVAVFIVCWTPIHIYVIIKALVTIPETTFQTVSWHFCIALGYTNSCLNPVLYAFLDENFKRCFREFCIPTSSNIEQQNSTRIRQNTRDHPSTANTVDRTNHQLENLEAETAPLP
UniProt P07148, sequence (whole entry, looked up): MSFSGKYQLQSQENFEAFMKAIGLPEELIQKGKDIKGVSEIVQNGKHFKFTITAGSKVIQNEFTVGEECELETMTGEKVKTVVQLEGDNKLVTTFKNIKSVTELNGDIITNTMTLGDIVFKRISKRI
UniProt Q9Y3R4, sequence (whole entry, looked up): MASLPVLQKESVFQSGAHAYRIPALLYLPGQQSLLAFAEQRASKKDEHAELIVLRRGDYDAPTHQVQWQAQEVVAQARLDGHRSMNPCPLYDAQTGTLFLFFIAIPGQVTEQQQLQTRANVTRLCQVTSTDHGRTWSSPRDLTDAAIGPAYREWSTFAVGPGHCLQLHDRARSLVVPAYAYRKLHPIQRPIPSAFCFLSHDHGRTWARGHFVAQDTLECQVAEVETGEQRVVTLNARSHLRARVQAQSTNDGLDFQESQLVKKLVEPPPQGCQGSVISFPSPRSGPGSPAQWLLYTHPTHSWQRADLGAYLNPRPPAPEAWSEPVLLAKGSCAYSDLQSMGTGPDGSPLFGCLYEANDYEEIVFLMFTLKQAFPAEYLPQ
UniProt P00330, sequence (whole entry, unmodified, looked up): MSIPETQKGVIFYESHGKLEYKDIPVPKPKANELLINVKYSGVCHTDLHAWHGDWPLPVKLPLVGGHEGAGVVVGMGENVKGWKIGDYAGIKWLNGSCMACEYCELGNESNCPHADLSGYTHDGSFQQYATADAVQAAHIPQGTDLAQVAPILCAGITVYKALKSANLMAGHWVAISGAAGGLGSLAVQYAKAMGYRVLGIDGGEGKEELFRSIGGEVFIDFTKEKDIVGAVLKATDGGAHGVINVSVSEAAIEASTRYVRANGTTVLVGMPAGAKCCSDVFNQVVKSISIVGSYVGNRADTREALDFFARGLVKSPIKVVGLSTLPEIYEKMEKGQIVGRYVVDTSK
UniProt Q0WP12, sequence (whole entry, unmodified, looked up): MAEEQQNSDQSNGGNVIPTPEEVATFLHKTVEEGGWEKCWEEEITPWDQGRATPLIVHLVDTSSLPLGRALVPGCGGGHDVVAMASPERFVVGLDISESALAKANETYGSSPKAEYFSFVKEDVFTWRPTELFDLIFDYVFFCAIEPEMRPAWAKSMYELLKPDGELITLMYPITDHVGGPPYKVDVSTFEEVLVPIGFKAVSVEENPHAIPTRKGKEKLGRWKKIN
UniProt P40939, sequence (whole entry, looked up): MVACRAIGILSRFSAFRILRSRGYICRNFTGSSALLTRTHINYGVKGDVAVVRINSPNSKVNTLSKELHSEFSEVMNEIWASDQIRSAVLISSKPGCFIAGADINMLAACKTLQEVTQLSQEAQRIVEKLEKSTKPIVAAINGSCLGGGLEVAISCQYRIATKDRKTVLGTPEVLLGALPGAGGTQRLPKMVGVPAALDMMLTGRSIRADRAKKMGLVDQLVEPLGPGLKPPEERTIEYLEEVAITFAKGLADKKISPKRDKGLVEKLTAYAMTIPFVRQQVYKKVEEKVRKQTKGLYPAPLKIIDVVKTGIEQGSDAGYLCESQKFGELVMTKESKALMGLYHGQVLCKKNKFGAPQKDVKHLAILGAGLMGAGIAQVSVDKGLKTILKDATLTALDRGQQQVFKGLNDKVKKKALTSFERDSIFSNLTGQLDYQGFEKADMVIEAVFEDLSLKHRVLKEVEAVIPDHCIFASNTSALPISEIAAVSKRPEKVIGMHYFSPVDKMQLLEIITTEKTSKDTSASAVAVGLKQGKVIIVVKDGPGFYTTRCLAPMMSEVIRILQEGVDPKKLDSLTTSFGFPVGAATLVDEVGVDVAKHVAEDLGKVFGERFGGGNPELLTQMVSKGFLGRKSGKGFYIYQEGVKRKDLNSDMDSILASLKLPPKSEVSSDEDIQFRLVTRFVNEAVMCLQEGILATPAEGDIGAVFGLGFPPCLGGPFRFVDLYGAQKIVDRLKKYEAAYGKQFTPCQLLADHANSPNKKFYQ
UniProt P29371, sequence (whole entry, looked up): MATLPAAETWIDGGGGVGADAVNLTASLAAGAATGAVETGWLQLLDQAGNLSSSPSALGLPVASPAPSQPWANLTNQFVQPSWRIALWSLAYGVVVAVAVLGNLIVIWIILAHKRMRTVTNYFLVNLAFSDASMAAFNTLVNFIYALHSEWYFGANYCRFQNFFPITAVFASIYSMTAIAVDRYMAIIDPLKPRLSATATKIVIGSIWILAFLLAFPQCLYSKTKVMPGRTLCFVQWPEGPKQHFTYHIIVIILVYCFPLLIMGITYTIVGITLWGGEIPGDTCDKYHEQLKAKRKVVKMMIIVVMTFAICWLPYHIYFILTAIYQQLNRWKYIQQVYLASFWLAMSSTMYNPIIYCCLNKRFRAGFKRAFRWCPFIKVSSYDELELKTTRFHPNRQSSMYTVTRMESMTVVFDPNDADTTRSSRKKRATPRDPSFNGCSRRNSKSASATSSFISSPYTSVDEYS
UniProt Q9NWT6, sequence (whole entry, looked up): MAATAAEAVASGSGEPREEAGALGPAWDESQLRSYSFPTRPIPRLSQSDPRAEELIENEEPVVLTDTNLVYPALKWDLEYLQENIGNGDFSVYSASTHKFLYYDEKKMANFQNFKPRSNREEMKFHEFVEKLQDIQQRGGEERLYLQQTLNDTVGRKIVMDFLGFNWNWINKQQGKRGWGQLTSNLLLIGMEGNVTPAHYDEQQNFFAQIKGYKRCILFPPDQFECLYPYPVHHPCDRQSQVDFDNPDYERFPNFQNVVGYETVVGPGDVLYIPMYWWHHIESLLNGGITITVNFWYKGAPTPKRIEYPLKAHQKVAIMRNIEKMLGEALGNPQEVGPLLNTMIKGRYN

Structure (SMILES)	target or system	assay	system	conditions	how to read	measurement	result
[2H]c1c([2H])c([C@]2([2H])CCCN2C(=O)C(C)(C)Oc2ccc3cn[nH]c3c2)c([2H])c([2H])c1C([2H])([2H])[2H]	Activin receptor type-2A (ACVR2A, Homo sapiens, UniProt P27037)	KINOMEscan		1 µM	relative to: DMSO control	remaining binding	86%
O=C(O)CCC(=O)C(=O)O	Hypoxia-inducible factor 1-alpha inhibitor (HIF1AN, Homo sapiens, UniProt Q9NWT6)	substrate inhibition, steady-state kinetics				Ki/Km	~100 fold
Nc1ncnc2c1ncn2[C@@H]1O[C@H](COP(=O)(O)OP(=O)(O)NP(=O)(O)O)[C@@H](O)[C@H]1O	Cell cycle histidine kinase CckA, cytoplasmic region (Caulobacter vibrioides, UniProt Q9X688)	ITC		without c-di-GMP		ΔH	-1.37 ± 0.0914 kcal/mol
CN(CC(=O)O)C(=N)NP(=O)(O)O	Creatine kinase U-type, mitochondrial (CKMT1A, Homo sapiens, UniProt P12532, H99A)	substrate, Kinase-Glo luminescence		pH 7.0, reverse reaction, H61A mutant, with: second substrate in excess		kcat	28 ± 2 s⁻¹
CC[C@H](CO)Nc1nc(NCc2ccccc2)c2ncn(C(C)C)c2n1	Homeodomain-interacting protein kinase 4 (HIPK4, Homo sapiens, UniProt Q8NE63)	KINOMEscan		10 µM	direction not given	binding score	4.5
COC(=O)[C@@]1(O)C[C@H]2O[C@]1(C)n1c3ccccc3c3c4c(c5c6ccccc6n2c5c31)C(=O)NC4	Mitogen-activated protein kinase 3 (MAPK3, Homo sapiens, UniProt P27361)	ADP-Glo		80 nM, with: MBP substrate		kinase activity	65.7% and 45.9% and 60%
Oc1ccc(-c2ccc(Cl)cc2)c(Cl)c1	Estrogen receptor (ESR1, Homo sapiens, UniProt P03372)	reporter gene, agonist	T47D.luc	24 h	relative to: estradiol	EC25	0.1 µM
COc1cc2oc(-c3ccc(O)c(O)c3)cc(=O)c2c(O)c1O	Genome polyprotein, NS2B-NS3 protease (ZIKV, UniProt A0A024B7W1)	enzyme activity, non-competitive inhibitor		with: Bz-nKRR-AMC substrate		Ki'	14 µM
O=C(CF)N[C@H]1[C@H]([C@H](O)[C@H](O)CO)O[C@@](OC[C@H]2O[C@@H](Oc3ccc([N+](=O)[O-])cc3)[C@H](O)[C@@H](O)[C@H]2O)(C(=O)O)C[C@@H]1O	Sialidase-2 (Homo sapiens, UniProt Q9Y3R4)	substrate		10 min, pH 5.0, 37 °C		Km	1000 ± 200 µM
O=C(O)Cc1c[nH]cn1	Sodium- and chloride-dependent taurine transporter (SLC6A6, Homo sapiens, UniProt P31641, Y138A)	binding, microscale thermophoresis		500 µM, room temperature, with: 50 nM labelled protein	higher = more binding	normalised MST signal	0.758
COc1cc(F)cc2c(N3CCN(c4ccccc4OC4CC4)CC3)c(C#N)nnc12	Metabotropic glutamate receptor 8 (GRM8, Homo sapiens, UniProt O00222)	positive allosteric modulator		concentration not given, with: glutamate		activity	inactive
CSC[C@H]1CN(Cc2c[nH]c3c(N)ncnc23)C[C@@H]1O	Aminodeoxyfutalosine nucleosidase (Helicobacter pylori, UniProt Q9ZMY2)			forward isomerization rate		k3	0.16 ± 0.09 min⁻¹
COc1ccc(N2C(=O)N(c3c(C)cccc3Cl)Cc3cnc(Nc4ccc(C5CCN(C)CC5)cc4OC)nc32)nc1	Casein kinase II subunit alpha (CSNK2A1, Homo sapiens, UniProt P68400)	kinase activity, inhibitor		0.5 µM, kinase CK2		inhibition	19%
CN(C(=O)n1cnc(-c2ccc[n+]([O-])c2)c1)C1CCCCC1	HTR3A	radioligand binding		10 µM, with: [3H]GR-65630		inhibition	10%
C[C@H]1CN(c2n[nH]c3nc(N[C@H]4CC[C@H](NS(=O)(=O)CCC(F)(F)F)CC4)ncc23)CCO1	Trifunctional enzyme subunit alpha, mitochondrial (HADHA, Homo sapiens, UniProt P40939)	inhibitor, Kinobeads competition profiling		0.16 µM	relative to: vehicle	relative abundance	1.03
COc1ccc(F)cc1C(=O)NCc1ccc(-c2nn([C@@H](C)C(F)(F)F)c(N)c2C(N)=O)cc1	Tyrosine-protein kinase TXK (TXK, Homo sapiens, UniProt P42681)	enzyme activity			relative to: TXK over BTK	selectivity ratio	66.3
CC(C(=O)Nc1ccc2c(c1)B(O)OC2)c1cccc(Oc2ccccc2)c1 (centres unmarked)	Genome polyprotein, NS2B-NS3 protease (West Nile virus, UniProt P06935)	enzyme activity, FRET		50 µM, with: substrate 50 µM		inhibition	≤ 10%
O=C(Nc1cnccc1Cl)N1CCN(Cc2ccc3c(c2)OC(F)(F)O3)CC1	Mu-type opioid receptor (OPRM1, Homo sapiens, UniProt P35372)	radioligand binding, inhibitor		10 µM, human, with: [3H]diprenorphine		inhibition	8%
CC(C)(C)N1CCC(c2ccccc2)(c2ccccc2)CC1	Vero-E6	CellTiter-Glo ATP		concentration not given, 72 h, retest 8-point duplicates	relative to: DMSO 0%, hyamine -100%, more negative, more toxic	cytotoxicity efficacy	0%
C/C1=C2/[N-][C@H]([C@H](CC(N)=O)[C@@]2(C)CCC(=O)NC[C@@H](C)OP(=O)([O-])O[C@H]2[C@@H](O)[C@@H](n3cnc4cc(C)c(C)cc43)O[C@@H]2CO)[C@]2(C)N=C(/C(C)=C3N=C(/C=C4N=C1[C@@H](CCC(N)=O)C\4(C)C)[C@@H](CCC(N)=O)[C@]\3(C)CC(N)=O)[C@@H](CCC(N)=O)[C@]2(C)CC(N)=O.[CH3-].[Co+3]	MMACHC (Homo sapiens, UniProt Q9Y4U1)	demethylation, substrate		with: glutathione		kobs	0.6 min⁻¹
O=C(O)CC(F)(F)C(=O)N1N=C(c2c(-c3ccc(Cl)cc3)c3ccccc3[nH]c2=O)C[C@H]1c1ccc(Cl)cc1	rat GluN1a mutant NMDA receptor	TEVC	Xenopus oocytes	concentration not given	relative to: wild type	potency reduction	8 fold

Structure (SMILES)	target or system	assay	system	conditions	how to read	measurement	result
O=C(c1ccc(Cl)cc1)N1CCN2C(=O)N(OC(=O)N3CCOc4ccccc43)C(=O)C2C1 (centres unmarked)	Actin, cytoplasmic 1 (ACTB, Homo sapiens, UniProt P60709)	MS-based ABPP	SW-620 conditioned medium	10 µM	relative to: compound over DMSO, lower = more inhibition	median protein ratio	1
COc1cc(N)c(Cl)cc1C(=O)NC1CN2CCC1CC2 (centres unmarked)	G-protein coupled receptor 39 (GPR39, Homo sapiens, UniProt O43194)	β-arrestin recruitment, TANGO luminescence		concentration not given	relative to: basal luminescence	log2 fold change	-0.03
CC(C)(C)c1csc(-c2cc3cc(OCc4ccccc4CC(=O)O)ccc3o2)n1	Fatty acid-binding protein, liver (FABP1, Homo sapiens, UniProt P07148)	affinity selection mass spectrometry		100 nM, with: pooled compounds	relative to: other proteins	binding fold change	10.6
CSCC[C@H](NC(=O)CNC(=O)[C@H](CC(N)=O)NC(=O)[C@H](CCSC)NC(=O)[C@H](CCSC)NC(=O)[C@H](CCC(N)=O)NC(=O)[C@H](Cc1c[nH]c2ccccc12)NC(=O)[C@@H](N)CCSC)C(=O)N[C@@H](CO)C(=O)N[C@@H](CCC(N)=O)C(N)=O	huntingtin exon 1 bundled fibrils	EPR		concentration not given	relative to: protofibrils	binding stoichiometry reduction	~6 fold
CCCC(=O)N[C@H]1CCOC1=O	sdiA					Emax	123%
CCN(CC)CCCNC(=O)CSc1c2c(nc3cc(Cl)ccc13)CCCC2	Vero-E6	CellTiter-Glo ATP		72 h, second round 5-point	relative to: DMSO 0%, hyamine -100%, more negative, more toxic	maximum response	0.6%
N[C@@H](Cc1c[nH]c2ccccc12)C(=O)O	Transcription attenuation protein MtrB, Δ71 truncation (mtrB, Geobacillus stearothermophilus, UniProt Q9X6J6)	isothermal titration calorimetry		25 °C, one-site model		ΔH	-18.07 ± 0.07 kcal/mol
O=C(NNC(=O)c1csnn1)c1ccc(Cl)cc1	Acetyl-CoA synthetase (Cryptococcus neoformans, UniProt J9VFT1)			195 nM		remaining activity	96%
CC=O	ADH1 (Saccharomyces cerevisiae, UniProt P00330, H49Q)	reduction, substrate		pH 7.3	relative to: wild type	turnover number increase	1.6 fold
CI	HOL1 (Arabidopsis thaliana, UniProt Q0WP12, V140T)	substrate, iodide release colorimetric		pH 7.5, sodium phosphate buffer, with: 1 mM SAH		Km	4890 ± 950 µM
C=C(CN(C(=O)c1c(C(F)F)nn(C)c1F)C1CC1)c1ccc(Cl)cc1Cl	SDHD/SDHC/SDHB (Sus scrofa, UniProt A5GZW8+D0VWV4+Q007T0)	enzyme activity, inhibitor, DCIP reduction	pig	0.2 µM, with: DCIP 80 µM		reaction velocity	0.0137 µM/s and 0.0142 µM/s and 0.0146 µM/s
Nc1ccncc1	Glutamate receptor 2 (Homo sapiens, UniProt P42262)	ion current, agonist, automated patch clamp	HEK293	10 µM		activation	3%
CC12CCC(CC1)C(C)(C)O2	1,8-cineole 2-endo-monooxygenase (cinA, Citrobacter braakii, UniProt Q8VQF6, Y81F)	NADPH turnover		Y81F mutant	relative to: wild type	Vmax decrease	~30%
CN1CCN(c2cc(-c3ccncc3)c(-c3ccc4ccccc4c3)nn2)CC1	Neuromedin-K receptor (TACR3, Homo sapiens, UniProt P29371)	agonist, FLIPR		12.5 µM		activation	0.8%
O=C(CCCCCCCCCN=C=S)CC(=O)N[C@H]1CCOC1=O	sdiA					Emax	~70%
Nc1nc2c(ncn2[C@@H]2O[C@H](COP(=O)(O)OP(=O)(O)OP(=O)(O)O)[C@@H](O)[C@H]2O)c(=O)[nH]1	GTP 3',8-cyclase (moaA, Staphylococcus aureus, UniProt P69848, R266K)	isothermal titration calorimetry		concentration not given, 25 °C, R266K mutant, anaerobic		binding entropy ΔS	14.4 cal/mol/K
O=C(O)COP(=O)(O)O	TPI1 (Saccharomyces cerevisiae, UniProt P00942, Y208T)	enzyme activity, competitive inhibitor, GPDH/NADH-coupled		pH 9.3, 25 °C, ionic strength 0.1 NaCl, with: glyceraldehyde 3-phosphate substrate	relative to: mutant over wild type	Ki ratio	11
O=C(O)C(F)(F)C(F)(F)C(F)(F)C(F)(F)C(F)(F)C(F)(F)C(F)(F)F	Solute carrier family 22 member 6 (SLC22A6, Homo sapiens, UniProt Q4U2R8)	uptake, substrate, two-transporter equation fit	HEK293 cells stably expressing SLC22A6	2.5 min, 37 °C		Jmax	636 ± 101 pmol/min/mg protein
O=C(Nc1cccnn1)N1CCC(=Cc2cccc(Oc3ccc(C(F)(F)F)cn3)c2)CC1	HTR3A	radioligand binding		10 µM, with: [3H]GR-65630		inhibition of binding	-14%
CN[C@]1(c2ccccc2Cl)CCCCC1=O	Sodium-dependent noradrenaline transporter (SLC6A2, Homo sapiens, UniProt P23975)	radioligand binding, antagonist, radioligand displacement		30 µM		inhibition	-3%
